Assay results pooled from the literature.
Parts stem from different laboratories: compare values within a part only. Substitutions count along the parent as printed.

Series 1 — method: RNA Bind-n-Seq; molecule type: RNA; matrix: in vitro; tested at: 365 nM; reference: no-protein control; reading: higher = stronger binding
Target: RNA binding protein fox-1 homolog 2, RRM domain, GST-SBP tag (RBFOX2, Homo sapiens, UniProt O43251-10, residues 100-194)
Notes: natural RNA segment, single round, ends assumed
All sequences stand within: GGGAGUUCUACAGUCCGACGAUC … UGGAAUUCUCGGGUGCCAA
Construct (chain): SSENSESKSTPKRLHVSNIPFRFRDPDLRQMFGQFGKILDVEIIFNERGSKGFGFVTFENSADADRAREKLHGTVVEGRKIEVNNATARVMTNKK
For `GUAUACCCAUAAAGAAUGCUCAUAUUAAUGUACUUAAAUUACACAUGUAGAGCAUAUCUGUUAUAUGUUUAUGUAACUAUCAAAUGGUUAUUUGUUACUAAAGCUAUAUU`, “RBNS enrichment (R)” read 0.373.
`UGCGAAAGAUGGCUACCUGGGGGGCUGCGGGGCUUGGGGGAGUUUACAAUCCCAUCCUAUGGCCUGCAGCCAGGCUGACAGCCUCUCCCCGAACCAUGCAUCCAAGUGCA` — result for “RBNS enrichment (R)”: 0.269.
`CCCAGAACUCUUUUGCUGGUCAGAGAUUCCCUGAGUGUCUGUCCUCACCCAAGCCUGCUCUGUGUCUGUGUUGUGAAGCUUGAGACUCUGGAAAGAAAUGGGGAGGGGGG`: “RBNS enrichment (R)” 0.834.
Under “RBNS enrichment (R)”, `GCUCACUUUCACUGAGGAUGCUGUCCUCUGAUUUAGCUGCUGCCUCCAGCCUCUGGCUUGAGAACUUACUAAAGGCACUUCCUUCCUGUUAAACCCCUGUUAACUCUCCA` is recorded as 0.314.
For `UGGGUCAUAACUGGGACUCCAUCUUUGCUGGGGAAAGUCUCCCACCUAGGGAAUGGUUACCACUCCAUGUAAAGAAAACUCCCUCAUGCGUCCUCUGGGACCUUCUUAGA`, “RBNS enrichment (R)” read 0.362.
`AUUAAGAAGGUCUAGACAUGGACAUUUUCUGUCCUACAAUGCUGACAUACUGUUAUUUCUUCUGGGAUUUAUUCUUGGCUGUAAACCCAGAACUAAAUUACAUAGAUGAA` — result for “RBNS enrichment (R)”: 0.475.
`UUUUAUCUUGUGGUUAGGGCUAGAAGUAAUGCUUCUAUUUGGGUUUUUACGCUAGAAGCUAGGCGGAAGUGAGUGGGCGGGGAUAUGCAAAUAACUAUCUCACAUAGCGC`: “RBNS enrichment (R)” 0.585.
For `CCUCCUUAGCUCUCCUUGUCUUUGCUGUUGGUUGGUUAUUUCCUGCUUUGUGUCUGUUCUGAGCUGUGAGAUUCCACUGUGAAAUAUAUGAAUAAAGUAUAUAAUUCUUU`, “RBNS enrichment (R)” read 1.57.
Under “RBNS enrichment (R)”, `AGCAGUGUCCGGGGAGAGUGGCUUUAGACCAGUCAGUACCUUGCUCUUUGUGCAUGGUGCAUGUCAAGUCAGGAAGCCAAGAAACCGUUGGCAUUAAAAUCUAGAUGCAU` is recorded as 0.257.

Series 2 — method: protein binding microarray; molecule type: double-stranded DNA, one strand shown; matrix: in vitro; tested at: not given; reference: not given; reading: higher = stronger binding
Target: Histone acetyltransferase KAT6A, both winged helices, GST fusion (KAT6A, Homo sapiens, UniProt Q92794, residues 1-181)
Notes: 8-mer, flanks averaged, mean of 2 arrays, mostly near background
Target sequence (chain): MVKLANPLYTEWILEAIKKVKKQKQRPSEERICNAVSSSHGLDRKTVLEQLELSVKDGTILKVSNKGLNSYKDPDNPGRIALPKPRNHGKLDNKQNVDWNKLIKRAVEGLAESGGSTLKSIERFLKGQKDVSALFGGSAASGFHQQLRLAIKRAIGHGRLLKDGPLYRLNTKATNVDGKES
With `AACACATG` the E-score was -0.113.
With `ACCTGACC` the E-score was -0.0525.
The E-score of `ACGTAAGC` is reported as 0.0134.
`ACGTATCA` has an E-score of -0.0524.
`CACGGGCC` has an E-score of 0.163.
For `ATAGCGGG`, the E-score was 0.15.
`CCTTGGCG` gave an E-score of 0.0952.
The E-score of `ATTCCATC` is reported as -0.0312.
`AGTAGATG` gave an E-score of -0.0816.
With `ATACCGGA` the E-score was 0.122.
The E-score of `AGAGGGCG` is reported as 0.269.
`GCGGTGAC` gave an E-score of 0.239.
`ATTGGAGG` gave an E-score of -0.103.
The E-score of `GGAGGACC` is reported as 0.0145.
`CTTTTTCC` has an E-score of 0.0418.
For `CTCACGTC`, the E-score was -0.0895.
With `ACGTCGGA` the E-score was 0.0848.
`CCTAGTGA` has an E-score of -0.133.
`CTACCGAG` gave an E-score of 0.104.
`CGGGCTAA` has an E-score of 0.204.
With `CCAAGCTA` the E-score was -0.225.
With `AATCCATC` the E-score was -0.252.
For `AAGCGGAT`, the E-score was 0.159.
The E-score of `ATATTTGC` is reported as 0.0327.
`AGAACCGC` gave an E-score of 0.139.

Series 3 — target: CCNB3, cyclin fold, Cln2 fusion (human); method: yeast growth competition, sequencing; matrix: yeast; notes: weak parent motif; reference: not given; reading: higher = stronger binding
Starting sequence: RBL1 docking peptide (human); GSAKRRLFGEDPP
Under “normalised enrichment score”, `R6C` is recorded as 0.274.
For `S2W`, “normalised enrichment score” read -0.0537.
`R5A L7A` — result for “normalised enrichment score”: 0.1.
Under “normalised enrichment score”, `P13D` is recorded as 1.
`S2V` — result for “normalised enrichment score”: 0.489.
For `R5Q`, “normalised enrichment score” read 0.213.
`G9T`: “normalised enrichment score” 0.931.
Under “normalised enrichment score”, `L7H` is recorded as 0.413.
For `F8T`, “normalised enrichment score” read 0.222.
`P12H`: “normalised enrichment score” 0.56.
`R6L` — result for “normalised enrichment score”: 0.231.
For `K4V`, “normalised enrichment score” read 0.817.
Under “normalised enrichment score”, `P13G` is recorded as 0.17.
For `E10Q`, “normalised enrichment score” read 0.795.
`A3H` — result for “normalised enrichment score”: 0.272.
`L7N`: “normalised enrichment score” -0.246.
`F8W`: “normalised enrichment score” -0.261.
`K4T`: “normalised enrichment score” 0.293.
`R5E`: “normalised enrichment score” 0.264.
For `A3P`, “normalised enrichment score” read 0.769.

Series 4 — method: protein-binding microarray; molecule type: double-stranded DNA, one strand shown; matrix: in vitro; tested at: 250 nM; notes: 60-bp whole probe; added: salmon DNA 0.4 mg/ml; reference: random background probes; reading: higher = stronger binding; all sequences stand within: GCCTAGCAC … GTCTTGATTCGCTTGACGCTGCTG
Target: Interferon regulatory factor 7, full length, phosphomimetic (IRF7, Homo sapiens, UniProt Q92985, residues 1-503, S101K/S471D/S472D/S475D/S476D/S477D/S483D/S484D/S487D)
Residues (chain): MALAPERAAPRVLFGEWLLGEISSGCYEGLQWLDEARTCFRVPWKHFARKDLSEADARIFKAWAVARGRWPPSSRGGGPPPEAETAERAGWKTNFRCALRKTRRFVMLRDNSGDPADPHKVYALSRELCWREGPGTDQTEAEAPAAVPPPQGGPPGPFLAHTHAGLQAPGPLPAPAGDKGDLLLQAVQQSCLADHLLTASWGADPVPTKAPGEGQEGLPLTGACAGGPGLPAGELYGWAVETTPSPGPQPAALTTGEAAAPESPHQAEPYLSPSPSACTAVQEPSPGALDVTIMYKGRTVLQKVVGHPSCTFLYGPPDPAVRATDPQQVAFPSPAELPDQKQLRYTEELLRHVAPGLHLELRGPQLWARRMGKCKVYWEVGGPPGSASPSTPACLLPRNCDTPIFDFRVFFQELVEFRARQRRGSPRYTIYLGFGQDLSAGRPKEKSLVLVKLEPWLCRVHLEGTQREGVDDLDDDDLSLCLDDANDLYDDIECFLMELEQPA
For `GACGGTTTCGACGATCGGGACGTGCTA`, the log fluorescence was 1.58 z-score.
With `TTCGGTTTCCTACTGCTTTAGTGCTAG` the log fluorescence was 2.41 z-score.
The log fluorescence of `GCCGGTCTCGGTCTCGGGACGTGCTAG` is reported as 1.03 z-score.
`CACGGTTTCCTACTGCTGACGTGCTAG` gave a log fluorescence of 1.85 z-score.
For `TTAGGCCTCCTTTTCCTTTAGTGCTAG`, the log fluorescence was 1.37 z-score.
The log fluorescence of `TTAGAACTGAGGTTTCGATTAGTGCTA` is reported as 7.57 z-score.
`TCATGTTTCTTCTGCTGACTGTGCTAG` gave a log fluorescence of 1.11 z-score.
`GACGGTTTCCTTCTCATGACGTGCTAG` has a log fluorescence of 1.89 z-score.
For `TTAGAACTTGGGACTGGATTAGTGCTA`, the log fluorescence was -0.146 z-score.
For `TCATTTTAAAGTTTCAGACTGTGCTAG`, the log fluorescence was 1.53 z-score.
`TTAGATATCAGTTTCGATTGGTGCTAG` has a log fluorescence of 10.2 z-score.
With `TCATGTCTGCCTTTCAAACTGTGCTAG` the log fluorescence was -0.179 z-score.
With `TTAGATCTCAGGCTGGATTAGTGCTAG` the log fluorescence was -0.452 z-score.
`GAGATGATCCAGTTTTACCTGGTGCTA` gave a log fluorescence of -0.418 z-score.
The log fluorescence of `CTGGAGAGACGGAGTCTCCAGTGCTAG` is reported as -0.837 z-score.
`ATATTTCCCAGAACTGGAGTGGTGCTA` gave a log fluorescence of 2.05 z-score.
`TTAGGGTTCCTTCTCCTTTAGTGCTAG` gave a log fluorescence of -0.0445 z-score.
`TTAGGTTTCGGTTTCCGTTAGTGCTAG` has a log fluorescence of 14.9 z-score.
The log fluorescence of `TTAGGTTTCCTTAACCTTTAGTGCTAG` is reported as 0.662 z-score.
The log fluorescence of `TCAGTTTTCTAAACCATACTGTGCTAG` is reported as 1.33 z-score.
With `TTAGGTAACCTTCTCCTTTAGTGCTAG` the log fluorescence was 0.0321 z-score.
`GACGGACGGGACTTTCGGGACGTGCTA` has a log fluorescence of -0.661 z-score.
`GACGGTCTCGGACTGGGGTCGTGCTAG` gave a log fluorescence of 0.227 z-score.
With `TCACAAGTTTCACGTCTTACTGTGCTA` the log fluorescence was 0.843 z-score.
For `TTAGGTTTCGGGTTTCGTTTAGTGCTA`, the log fluorescence was 12.8 z-score.

A few entries again (series 1):
For `GUAUACCCAUAAAGAAUGCUCAUAUUAAUGUACUUAAAUUACACAUGUAGAGCAUAUCUGUUAUAUGUUUAUGUAACUAUCAAAUGGUUAUUUGUUACUAAAGCUAUAUU`, “RBNS enrichment (R)” read 0.373.
`UGCGAAAGAUGGCUACCUGGGGGGCUGCGGGGCUUGGGGGAGUUUACAAUCCCAUCCUAUGGCCUGCAGCCAGGCUGACAGCCUCUCCCCGAACCAUGCAUCCAAGUGCA` — result for “RBNS enrichment (R)”: 0.269.
`CCCAGAACUCUUUUGCUGGUCAGAGAUUCCCUGAGUGUCUGUCCUCACCCAAGCCUGCUCUGUGUCUGUGUUGUGAAGCUUGAGACUCUGGAAAGAAAUGGGGAGGGGGG`: “RBNS enrichment (R)” 0.834.
Under “RBNS enrichment (R)”, `GCUCACUUUCACUGAGGAUGCUGUCCUCUGAUUUAGCUGCUGCCUCCAGCCUCUGGCUUGAGAACUUACUAAAGGCACUUCCUUCCUGUUAAACCCCUGUUAACUCUCCA` is recorded as 0.314.
For `UGGGUCAUAACUGGGACUCCAUCUUUGCUGGGGAAAGUCUCCCACCUAGGGAAUGGUUACCACUCCAUGUAAAGAAAACUCCCUCAUGCGUCCUCUGGGACCUUCUUAGA`, “RBNS enrichment (R)” read 0.362.
`AUUAAGAAGGUCUAGACAUGGACAUUUUCUGUCCUACAAUGCUGACAUACUGUUAUUUCUUCUGGGAUUUAUUCUUGGCUGUAAACCCAGAACUAAAUUACAUAGAUGAA` — result for “RBNS enrichment (R)”: 0.475.
`UUUUAUCUUGUGGUUAGGGCUAGAAGUAAUGCUUCUAUUUGGGUUUUUACGCUAGAAGCUAGGCGGAAGUGAGUGGGCGGGGAUAUGCAAAUAACUAUCUCACAUAGCGC`: “RBNS enrichment (R)” 0.585.
For `CCUCCUUAGCUCUCCUUGUCUUUGCUGUUGGUUGGUUAUUUCCUGCUUUGUGUCUGUUCUGAGCUGUGAGAUUCCACUGUGAAAUAUAUGAAUAAAGUAUAUAAUUCUUU`, “RBNS enrichment (R)” read 1.57.
Under “RBNS enrichment (R)”, `AGCAGUGUCCGGGGAGAGUGGCUUUAGACCAGUCAGUACCUUGCUCUUUGUGCAUGGUGCAUGUCAAGUCAGGAAGCCAAGAAACCGUUGGCAUUAAAAUCUAGAUGCAU` is recorded as 0.257.
